Results gathered from unrelated publications.
Parts stem from different laboratories: compare values within a part only.

Set 1
Target: Histone acetyltransferase KAT6A, winged helix 1, GST fusion (KAT6A, Homo sapiens, UniProt Q92794, residues 1-85)
Technique: protein binding microarray
Form: double-stranded DNA, one strand shown
Medium: in vitro
Tested at: not given
Notes: 8-mer, flanks averaged, mean of 2 arrays, mostly near background
Relative to: not given
Direction: higher = stronger binding
Construct (chain): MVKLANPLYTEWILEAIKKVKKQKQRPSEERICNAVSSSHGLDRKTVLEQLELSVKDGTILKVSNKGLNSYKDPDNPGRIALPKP
| Sequence | E-score |
| --- | --- |
| CAGGGGTC | 0.01 |
| ACTTGCTA | -0.152 |
| ACACTTTG | -0.195 |
| GAGCCGGC | 0.365 |
| CGTGCACA | -0.0684 |
| ATACACTC | -0.108 |
| GTCCAGAC | -0.102 |

Set 2
Target: Interferon regulatory factor 3, full length, phosphomimetic (IRF3, Homo sapiens, UniProt Q14653, residues 1-427, S386D/S396D/S398D/S402D/T404D/S405D)
UniProt Q14653, sequence (whole entry, unmodified, looked up): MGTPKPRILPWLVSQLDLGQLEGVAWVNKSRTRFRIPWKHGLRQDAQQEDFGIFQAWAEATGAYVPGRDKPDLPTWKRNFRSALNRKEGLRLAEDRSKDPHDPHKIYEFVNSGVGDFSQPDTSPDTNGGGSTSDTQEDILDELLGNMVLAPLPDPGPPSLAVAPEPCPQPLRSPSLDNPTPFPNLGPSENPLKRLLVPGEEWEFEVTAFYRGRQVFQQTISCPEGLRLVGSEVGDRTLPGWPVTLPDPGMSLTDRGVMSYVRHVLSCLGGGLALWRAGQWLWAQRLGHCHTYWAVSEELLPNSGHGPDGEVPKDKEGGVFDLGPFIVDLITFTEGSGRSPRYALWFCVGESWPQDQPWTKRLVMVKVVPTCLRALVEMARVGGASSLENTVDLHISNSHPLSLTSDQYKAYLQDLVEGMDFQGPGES
Technique: protein-binding microarray
Form: double-stranded DNA, one strand shown
Medium: in vitro
Tested at: 2540 nM top
Notes: 60-bp whole probe
Added: salmon DNA 0.4 mg/ml
Relative to: random background probes
Direction: higher = stronger binding
Constant ends, left off below: GCCTAGCAC … GTCTTGATTCGCTTGACGCTGCTG
| Sequence | fitted relative affinity [z-score] |
| --- | --- |
| GACGGTATCGGGACTGGTGACGTGCTA | 1.71 |
| TCATATTTACCTCTCACACTGTGCTAG | 0.972 |
| TCACTTCTATAGGCTAGAACTGTGCTA | 0.898 |
| AAGCAGTTACTCTAGAGGCCGTGCTAG | -0.621 |
| ATGTTCACTGTGTACCGTCTGTGCTAG | 0.295 |
| TCAAACATCATTGTCATACTGTGCTAG | -0.0622 |

Set 3
Target: PABPC1L2, full length, GST fusion (mouse, UniProt A0ABA7IW68)
Technique: RNAcompete
Form: RNA
Medium: in vitro
Tested at: 20 nM
Notes: 7-mer, probes averaged, single round
Relative to: mean of 7-mers
Direction: higher = stronger binding
| Sequence | 7-mer Z-score |
| --- | --- |
| GUAGCGG | -0.101 |
| GAUGUAU | -0.209 |
| AAAACGC | 3.37 |
| UAUGUGG | 0.157 |
| CCUCGCC | -0.427 |
| UAGCUCU | -0.206 |
| UGAUUGG | -0.0518 |
| AUCAGUA | -0.0518 |
| CGGCAUC | -0.126 |
| CUAAUCG | -0.248 |
| GAUAUUG | -0.273 |
| UUCGGGA | -0.0899 |

Single results of other studies
| Substance | target | assay | test system | conditions | how to read | endpoint | result |
| --- | --- | --- | --- | --- | --- | --- | --- |
| PhoQ, residues 284 288 289 292 302 303 GTAMQF | PhoP, residues 12 14 15 18 19 TQCLL (Escherichia coli, UniProt P23836) | Sort-seq, measured: YFP reporter | E. coli | PhoQ-PhoP variant library, added: 10 µM Mg2+ | relative to: high Mg2+ state, higher = stronger signaling | fold induction | 0.461 |

A few entries again (set 3):
| Sequence | 7-mer Z-score |
| --- | --- |
| UAGCUCU | -0.206 |
| UGAUUGG | -0.0518 |
| AUCAGUA | -0.0518 |
